Measurements collected from several papers.
A part holds a random share of what one study measured.

Block 1
Target: ATP-dependent RNA helicase DDX3X, helicase core (DDX3X, Homo sapiens, UniProt O00571, residues 132-607)
Sequence of UniProt O00571 (132-607, looked up): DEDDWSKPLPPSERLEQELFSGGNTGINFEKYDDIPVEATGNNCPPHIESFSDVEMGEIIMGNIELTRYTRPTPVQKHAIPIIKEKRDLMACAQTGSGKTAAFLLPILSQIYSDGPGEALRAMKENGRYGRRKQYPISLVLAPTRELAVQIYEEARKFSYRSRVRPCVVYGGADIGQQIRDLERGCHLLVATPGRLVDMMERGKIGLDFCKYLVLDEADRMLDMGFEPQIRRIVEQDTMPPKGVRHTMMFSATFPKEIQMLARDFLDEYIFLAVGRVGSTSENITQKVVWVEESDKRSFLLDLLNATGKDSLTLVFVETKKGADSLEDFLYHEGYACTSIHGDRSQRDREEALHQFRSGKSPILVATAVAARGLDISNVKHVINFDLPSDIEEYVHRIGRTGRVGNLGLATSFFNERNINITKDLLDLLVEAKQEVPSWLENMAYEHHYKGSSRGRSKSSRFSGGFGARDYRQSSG
Technique: RNA Bind-n-Seq
Molecule type: RNA
Matrix: in vitro
Tested at: 90 pmol
Notes: 4-mer, random 30-nt RNA, single round
With: 3 µM iPr-DMDA-PatA, 2 mM ADP, 2 mM phosphate
Reference: input library
Reading: higher = stronger binding
Strand | 4-mer enrichment [fold]
CAGA | 1.19
CUCC | 1.06
UGUG | 0.909
CAUC | 0.956
AUCU | 0.973
CUAG | 0.904
AGGC | 0.891
CUGA | 0.955
GCUA | 0.833
CGAU | 0.926
UUGG | 0.85
GUCA | 0.944

Block 2
Target: Interferon regulatory factor 5, full length, phosphomimetic (IRF5, Homo sapiens, UniProt Q13568-2, residues 1-514, K96S/S451D/S453D/S456D/S462D)
Technique: protein-binding microarray
Molecule type: double-stranded DNA, one strand shown
Matrix: in vitro
Tested at: 250 nM
Notes: 60-bp whole probe
With: salmon DNA 0.4 mg/ml
Reference: random background probes
Reading: higher = stronger binding
Shared flanks, not repeated: GCCTAGCAC … GTCTTGATTCGCTTGACGCTGCTG
Strand | log fluorescence [z-score]
TTAGATTTCCTTTCCCTTTAGTGCTAG | 1.9
GACTCTTCAGCACTCGGGTCGTGCTAG | -0.0185
TCAGTCACCCATCTCAAACTGTGCTAG | 0.156
GACTGTATCGGGACTGGGGACGTGCTA | 1.19
TCAGTTTCCATTTTCTGACTGTGCTAG | 2.6
GTCACATTGCACAATCTTAATGTGCTA | 0.704
TTAGGTATCGGGTACCGGTTAGTGCTA | 4.01
TCAATATTATATCTGTGACTGTGCTAG | 0.947
GACGGTCTCGGGCTGGGGACGTGCTAG | -0.504
TTAGATTTCAGTATCGACTAGTGCTAG | 6.21
GACGAACTGGGTTTCGGGACGTGCTAG | 2.91
TCACATACGAGTTTCCATTTGTGCTAG | 1.31
TTAGATTTCACTTCCGATTAGTGCTAG | 3.94
GACGGACTGGACAGTGGGGACGTGCTA | -0.538
GACGGACTGGGTTTCGGGTCGTGCTAG | 4.15
TTATGACTGGACACTGGGTTAGTGCTA | 0.0731
TTAGATTTCGGGACTGGATCAGTGCTA | 2.69
TTGCTTGTGTTTATTGTGACGTGCTAG | 0.457
TCATGCATGTTTTTGACACTGTGCTAG | 0.4
GACGGTATCAGTCTCGAGACGTGCTAG | 1.15
GACGGTCTCCTTTTCCAGACGTGCTAG | -0.0207
TTAGAACTGAGAATCGATTAGTGCTAG | 0.841
TTAGGAATGGGACTGGGTTAGTGCTAG | -0.406

Block 3
Target: RING finger protein unkempt homolog, zinc fingers 1-6, GST-SBP tag (UNK, Homo sapiens, UniProt Q9C0B0, residues 30-357)
Technique: RNA Bind-n-Seq
Molecule type: RNA
Matrix: in vitro
Tested at: not given
Notes: RNA with constant flanks, human-mouse chimeric sites, ends assumed
Reference: input RNA pool
Reading: higher = stronger binding
Residues (chain): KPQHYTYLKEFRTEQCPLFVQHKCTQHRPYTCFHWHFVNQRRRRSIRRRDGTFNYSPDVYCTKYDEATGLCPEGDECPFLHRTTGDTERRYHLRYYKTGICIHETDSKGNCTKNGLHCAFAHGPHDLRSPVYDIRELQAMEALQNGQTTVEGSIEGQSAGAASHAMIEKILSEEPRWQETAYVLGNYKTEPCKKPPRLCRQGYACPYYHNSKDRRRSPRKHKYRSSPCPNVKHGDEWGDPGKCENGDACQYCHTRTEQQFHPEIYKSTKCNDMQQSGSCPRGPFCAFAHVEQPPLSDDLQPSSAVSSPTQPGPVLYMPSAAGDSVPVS
Strand | bound/input enrichment
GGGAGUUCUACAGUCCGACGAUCCAGCCUCAGAGCCCAGACUUCCUGGAUAUUACCAACCCCAAAGCCGUAUUAGAAAAUGCAUUGAGAAACUUUGCCUGUCUGACGACUGGAGAUGUGAUUGCUAUCAACUACAAUGAGAAGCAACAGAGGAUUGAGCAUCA | 0.42 ratio
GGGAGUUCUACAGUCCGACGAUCAUAUUUCAUAUUGCAAAGAUGUUUACAAGUAUUUUAAUUUAAGUUCAGUGAACUUUUUUGUAGCUGGGUUAAAUCUUUUUAUUUUAGGUAUGGCCUUUGGCAAAGAACACUGUAUUAUUUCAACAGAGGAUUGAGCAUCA | 1.02 ratio
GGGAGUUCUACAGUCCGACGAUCUAAAUUAGGGCUGCCGUUUUCUGUUUCUCCCUGGGCUGCAGACAGCUAGAAGAUUUUAUCUAGCUUAUACAAGGCUGCUGGUGUUCCCUCUUUUUUUCCCUCUCUCUGUUUUUGGCUGCACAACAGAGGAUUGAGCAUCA | 1.22 ratio
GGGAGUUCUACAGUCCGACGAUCAUAGAUGAAAUUGAUGUAGAUCAGGAAGGAAUUGCUGAAAUGAUCCUGGAUGAAAAUGCUAUUGCUCAGGUCCCACGCCCUGGCACAUCUUUGAAGCUCCCUGGCACUAACCAAACAGGACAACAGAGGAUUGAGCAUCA | 0.565 ratio
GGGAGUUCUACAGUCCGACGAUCAAAGGCAAAAAGGGCAGCUGUGUCAUUUCAUAAGUAACUCUGGGGGAGGGAAAUUCUAACUAGUUUGUUAAUUUUCCCCCAAAUGAAGCCAAAGUGUGUGUUGAAGAACUGAGAAAAAAUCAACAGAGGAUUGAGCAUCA | 0.661 ratio
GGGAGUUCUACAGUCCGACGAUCGUGCCCUCCUUCUCGCUGCGGAGCCCGAGCUGGGAACCAUUCCGGGACUGGUACCCUGCACACAGCCGCCUCUUCGACCAGGCCUUCGGGGUGCCCCGGUUGCCCGAUGAGUGGUCGCAGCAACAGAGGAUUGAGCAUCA | 0.0842 ratio
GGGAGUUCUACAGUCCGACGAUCGGUGGGGGGUUGUCAUUCGUUUGAGCUGCUGAUUUUCAUGAGUCGCCUUCAAAACUCUCGUGUAGGGUUGACACUGUGGGGGGGUGGGGGAUCCAGCUUAUUCUUUUAUUUUCAAGUCCACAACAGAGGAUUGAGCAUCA | 0.464 ratio
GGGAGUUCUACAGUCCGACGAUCAGCACAACACCAGCUAAGCUCAGGAACCCUUGUACAAGUGAACAAAACUGCACCAGCCCAUUUAGCUACAAAAAUGUGCUUAGUCUUACUGACAGAGGAGAGUUUUUCAAUGAACUUGUUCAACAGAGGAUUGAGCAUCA | 0.767 ratio
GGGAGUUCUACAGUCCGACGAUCGCCACCAGAUCCCAGAAACAUGACUCUUGCUGCCUACAAAGAGAAGAUGAAGGAGCUCCCGCUGGUGUCCUUGUUCUGCUCCUGCUUCUUGUCUGAUCCCCUGAAUAAGUCGUCCUACAACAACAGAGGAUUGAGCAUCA | 0.28 ratio
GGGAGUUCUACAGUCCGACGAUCGCCACCAGAUCCCAGAAACAUGACCCUUGCUGCCUACAAAGAGAAGAUGAAGGAACUCCCGCUGGUGUCUCUGUUCUGCUCCUGCUUCCUGGCCGAUCCCCUGAAUAAGUCGUCCUACAACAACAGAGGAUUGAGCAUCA | 0.415 ratio
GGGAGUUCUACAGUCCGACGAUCUCUUAACUUAUUCAUUUAACUUAUUUUUAGCACUUAGUAAAUAUUGUUAGUCUUAGACAAUAGCUCACAUUUUUUGAGAAGCAUGCCCUCCCUGUCCAUUGGGCCCAUAACAUGACCCAGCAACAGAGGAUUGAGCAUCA | 501 ratio

Block 4
Target: RNA binding protein fox-1 homolog 2, RRM domain, GST-SBP tag (RBFOX2, Homo sapiens, UniProt O43251-10, residues 100-194)
Technique: RNA Bind-n-Seq
Molecule type: RNA
Matrix: in vitro
Tested at: 365 nM
Notes: natural RNA segment, single round, ends assumed
Reference: no-protein control
Reading: higher = stronger binding
Target sequence (chain): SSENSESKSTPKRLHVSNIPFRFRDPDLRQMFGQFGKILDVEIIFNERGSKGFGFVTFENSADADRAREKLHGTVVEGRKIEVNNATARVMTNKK
Strand | RBNS enrichment (R)
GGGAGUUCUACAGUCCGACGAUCUUGCAACUCUGUUCUUUGGAAAGAAUAAAAGCAUUUUUUUUCACUUGCUAACAUGCUCACAAAUGUGAGAGAAGAGUCAUUAAAAGCUUUACUUACUGGGUCAGUGCGUCUGGAAUUCUCGGGUGCCAA | 0.66
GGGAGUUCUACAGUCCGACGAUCACCUCUUGGCUGACCAAAGCUGGGACAGGGCUUUAACCAGACAUAGGAGCAGUGUGCAAUUCCUGAUUCACUGCACAGUAUUAUGUCAUAAUUGCAGGAAUUAUUUUUUGUGGAAUUCUCGGGUGCCAA | 0.425
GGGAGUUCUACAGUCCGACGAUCCCGUUGAAGGACUUGCAUCCCCAUUGCGGGCAGUGCUGGACGUGUCCCGGAGACCCACCGGGAGGGCGCCGCCAUGCCUUGUACCCCCACCGUGCAGGUUGUGGCCGGUUUGGAAUUCUCGGGUGCCAA | 0.766
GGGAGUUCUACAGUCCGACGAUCGUCUUUUUCUACAGCCAGUAAGGCAGCUCUGUCGUGGUAGCAGAUGGUCCCAUUAUUCUAGGGUCUUACUCUUUGUAUGAUGAAAAGAAUGUGUUAUGAAUCGGUGCUGUUGGAAUUCUCGGGUGCCAA | 0.574
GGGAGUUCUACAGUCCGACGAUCAGUGUGGGUAACAGUCACAGCAGUUUUUUUUACCAACAGCAUACUUAACAGACUUGCUGUGUAGCAGUUUUUUUCUGGUGGAGUUGCUGUAAGUCUUGUAAGUCUAAUGUUGGAAUUCUCGGGUGCCAA | 0.444
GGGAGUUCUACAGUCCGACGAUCAAUAUUCUGAAAGAUAAUCUUCCUUUGGCUCAUUCUAUGACAUGUACAACUCUUAAGAAAGCCAUACUUAAUGGUGAUGUUAUUUUUUAGAUCCUAUUGUGAUUUGUAUGUGGAAUUCUCGGGUGCCAA | 0.343
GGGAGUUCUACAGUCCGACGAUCAGUGGCAUCUAUCAGUAAUUGCUUUCCUUUUUAUUGCUGGGCUGAAUGCUGUUCCAUUGUAUGGCUGUGUCAGAUUUUGUUUGUUCAUUCACCAGUUGAUAGACAUGUAGUGGAAUUCUCGGGUGCCAA | 0.334
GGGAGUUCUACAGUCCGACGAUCUAAAUUGUCUUUUUAAAUUGCUAACAAGCAUCAGUUAUAUUUGAGCUUCAUUUUUCUUUUAUCCUGUCUGUCCUAAUAAAAACAAAAAUGGCCAAAAAGUGGAGAGGAAAUGGAAUUCUCGGGUGCCAA | 1.04
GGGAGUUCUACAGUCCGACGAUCUCAGGAGAUUCAAAUUCUUGGCUGUUUCAGAACUCUUGAGCUCAGUCAGGCAGGGAUGUUUUUAAAGAAAUGAAUUUGAUCAUGUGGAAUCUGUUAGCUCUUAAGGCUCUUGGAAUUCUCGGGUGCCAA | 0.229
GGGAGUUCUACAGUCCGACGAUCGAGAGAGAAUGAGUCCUCCCUCAGUUGCUGCCUCUCACUCCUGGUGACAUGGUGCCACCCAAGCUUGGCCAUUCCCACAUAGUCAGCAAGCUGAGGACCCAAAGUUGGACUGGAAUUCUCGGGUGCCAA | 0.368
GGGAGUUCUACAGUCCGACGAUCUUAAAGACAGUCCAGAGCUUUUCAGUUGAUUCGUCUCCUAUCCUGUGUAAAUAUUUUCCUCUCAGGGCAGGGGAAAGAGGACAGAGAAAGGAGCUGGUAGAAGCAGAGAGUGGAAUUCUCGGGUGCCAA | 0.51
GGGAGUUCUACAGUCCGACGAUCAUUGAGUAUAUGUUUACUCUGGGCCUGGGAGAACUUAACUUUCUAGAGCAGUUUGUUGACUUGUGUGCAAUGGGGAGAGGUACCAUGAUGACACUCACAGGGAGCCACUGUGGAAUUCUCGGGUGCCAA | 5.98

Block 5
Target: Histone acetyltransferase KAT6A, winged helix 1, GST fusion (KAT6A, Homo sapiens, UniProt Q92794, residues 1-85)
Technique: protein binding microarray
Molecule type: double-stranded DNA, one strand shown
Matrix: in vitro
Tested at: not given
Notes: 8-mer, flanks averaged, mean of 2 arrays, mostly near background
Reference: not given
Reading: higher = stronger binding
Target sequence (chain): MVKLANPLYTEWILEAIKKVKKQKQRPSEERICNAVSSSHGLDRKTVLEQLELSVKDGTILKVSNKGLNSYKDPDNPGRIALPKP
Strand | E-score
AGCGCTGG | 0.197
ACTTATCC | -0.113
CCATTTGA | -0.0213
AGTGAACA | -0.155
ACTATAAT | -0.046
ATATCGAG | -0.00026
CGTCGAGA | -0.181
GACTGTAA | -0.00456
CCCCCATC | -0.181
AGGAATTA | -0.0975
AGTAAAAC | -0.0985
ACCATGGT | -0.116
AGGGCTAC | -0.0458
ATCAGAAC | -0.113
ACGCAGTG | 0.274
GATTGGTA | -0.104
AGGTCAAC | -0.223
AGGCTATG | -0.13
TCAAGGAA | -0.075
CATATTTC | -0.211
AACTATGT | -0.113

Some of these lines once more (block 2):
Strand | log fluorescence [z-score]
GACTGTATCGGGACTGGGGACGTGCTA | 1.19
TCAGTTTCCATTTTCTGACTGTGCTAG | 2.6
GTCACATTGCACAATCTTAATGTGCTA | 0.704
TTAGGTATCGGGTACCGGTTAGTGCTA | 4.01
TCAATATTATATCTGTGACTGTGCTAG | 0.947
GACGGTCTCGGGCTGGGGACGTGCTAG | -0.504
TTAGATTTCAGTATCGACTAGTGCTAG | 6.21
GACGAACTGGGTTTCGGGACGTGCTAG | 2.91
TCACATACGAGTTTCCATTTGTGCTAG | 1.31
TTAGATTTCACTTCCGATTAGTGCTAG | 3.94
GACGGACTGGACAGTGGGGACGTGCTA | -0.538
